Published values of several laboratories.
Lines come from different studies, so protocols differ. Several values in a cell are separate wells, animals, samples, runs or records.
Target: Phosphatidylinositol 4-kinase beta (PI4KB, Homo sapiens, UniProt Q9UBF8)

With `C=CC(=O)N1Cc2nc(-c3cc(-c4cc(Cl)cnc4Cl)c(F)cc3F)n(-c3ccncn3)c2C1` the inhibition was 8.8% (cell-free assay, inhibitor; 1 µM).
`CC(C)=CC1OC(C)(C)C2C=C3C(=O)C(Cl)=CC(O)C3C3C(O)C4OC4C(=O)C132` (stereo not shown) gave a remaining binding of 83% (cell-free assay, competition with immobilised ligand; 10 µM).
With `Cc1ccc(-c2c(/C=C(\C#N)C(=O)NC(C)C)n(CCCO)c3ncnc(N)c23)cc1` the remaining binding was 100% (cell-free assay, competition with immobilised ligand; 1 µM).
`Cc1cnc2nc1Nc1cccc(c1)COC/C=C/COCc1cc(ccc1OCCN1CCOCC1)N2` gave a remaining binding of 91% (binding, competition with immobilised ligand; 0.1 µM).
With `Cc1cccc(O[C@H]2CCC[C@@H](C(C)CNCc3ccncc3)C2)c1` (relative stereo) the inhibition was 13% (enzyme activity, inhibitor; 1 µM).
With `CNC(=O)C1CCN(c2cc(C)c(F)cc2NC(=O)c2ccc(-c3cc(O)ccc3C)c(C)c2)CC1` the remaining binding was 100% (binding, competition with immobilised ligand; 1 µM).
For `COc1cc(Nc2nccc(-c3cnn4nc(OC)ccc34)n2)cc(C(F)(F)F)c1`, the remaining binding was 100% (binding, competition with immobilised ligand; 1 µM).
`CNC1C[S+]2CC[S+]3CC[S+](C1)[Ru-4]321([N]=C=S)[n]2c3ccc(OC)cc3c3c4c(c5cc(F)c[n+]1c5c32)C(=O)NC4=O` (stereo not shown) has a remaining binding of 79% (KinomeScan; 0.1 µM; relative to: untreated).
`COc1cc(Nc2nc(C)cc(-c3cnn4nc(OC)ccc34)n2)cc(C(F)(F)F)c1` has a remaining activity of 85% (inhibitor; 1 µM, PIK4CB; relative to: control).
`C=CC(=O)Nc1cccc(-c2cnc3[nH]cc(C(=O)NC(C)(C)C)c3n2)c1` has an inhibition of 4% and 2% (kinase activity; 0.1 µM).
`Nc1ncc2c(n1)-c1c([nH]c3ccc(C4=CCOCC4)cc13)CCC2` gave a remaining binding of 78% (binding, competition with immobilised ligand; 1 µM).
For `C=CC(=O)N1CCCC(n2c(=O)c3ncccc3n(Cc3ccc(Oc4ccccc4)cc3)c2=O)C1` (stereo not shown), the remaining binding was 59% (cell-free assay, competition with immobilised ligand; 1 µM).
`CCN1CCN(Cc2ccc(C(=O)Nc3ccc(C)c(NCc4cnc5[nH]ccc5c4OC)c3)cc2C(F)(F)F)CC1` has a remaining binding of 42% (binding, competition with immobilised ligand; 1 µM).
With `C=CC(=O)N1CCc2ccc(-n3c(=O)ccc4cnc5ccc(-c6cnn(C)c6)cc5c43)cc21` the remaining binding was 100% (KINOMEscan; 1 µM; relative to: DMSO control).
The remaining binding of `COc1c(Cl)cccc1Nc1c(-c2ccncc2C#C[C@@]2(C)CCCN2C(=O)/C=C/CN(C)C)[nH]c2c1C(=O)NCC2` is reported as 64% (cell-free assay, competition with immobilised ligand; 3 µM).
`CN1CCN(Cc2ccc(-c3ccc(CO[C@H]4CCC[C@@H]4NC(=O)c4cc(-c5cnn(C)c5)cnc4N)cc3)cc2)CC1` has an inhibition of -13% (enzyme activity, inhibitor; 0.1 µM).

Excerpt of the above:
With `C=CC(=O)N1Cc2nc(-c3cc(-c4cc(Cl)cnc4Cl)c(F)cc3F)n(-c3ccncn3)c2C1` the inhibition was 8.8% (cell-free assay, inhibitor; 1 µM).
